Results collected from several papers.
Compare with care: the assays were run in different laboratories.
Cell line: SN12C

With COc1cc(CNC(=O)C[C@H](C)CCC=C(C)C)ccc1OCc1cn(-c2ccccc2F)nn1 the growth percent was 76.1% (SRB; 10 µM, 48 h).
For CC(Cc1ccc(Cl)cc1)=C(c1ccc(Cl)cc1)c1ccc(OCCN(C)C)cc1, the GI50 was 4.18 µM (cell growth or viability).
The growth of CC(=O)OC[C@H]1O[C@@H](Sc2sc(C(=O)c3ccc(Br)cc3)c(N)c2-c2nc3ccccc3s2)[C@H](OC(C)=O)[C@@H](OC(C)=O)[C@H]1OC(C)=O is reported as 95.1% (SRB; 10 µM, 48 h; baseline: untreated).
CCC(=C(c1ccc(Cl)cc1)c1ccc(OCCCN(C)C)cc1)c1ccc(OC)cc1 has a GI50 of 5.05 µM (cell growth or viability).
The inhibition of COc1ccc(C2=Nn3c(NN=C4C(=O)N(C)c5ccc(Br)cc54)nnc3SC2)cc1 is reported as 12% (cell growth or viability, SRB; 10 µM).
COc1cc(CNC(=O)C[C@H](C)CCC=C(C)C)ccc1OCc1cn(-c2ccccc2)nn1 has a growth percent of 98.1% (SRB; 10 µM, 48 h).
COc1ccc2c(c1)/C(=N\Nc1nnc3n1N=C(c1ccccc1)CS3)C(=O)N2 gave an inhibition of 21% (cell growth or viability, SRB; 10 µM).
COc1cc(CNC(=O)C[C@H](C)CCC=C(C)C)ccc1OCc1cn(-c2ccc(C#N)cc2)nn1 has a growth percent of 77.8% (SRB; 10 µM, 48 h).
CC/C=C\C/C=C\C/C=C\C/C=C\C/C=C\C/C=C\CCC(=O)Nc1ccn(C2OC(CO)C(O)C2(F)F)c(=O)n1 (stereo not drawn) has a GI50 of 0.197 µM (cell growth or viability, SRB).
